Measurements collected from several papers.
Compare with care: the assays were run in different laboratories.
Sample: urine

`NCCONC(=O)[C@@H]1CC[C@@H]2CN1C(=O)N2OS(=O)(=O)O` — result for “amount excreted in urine (0-24 h)”: 918 mg (human male; intravenous infusion, 1 g multiple doses, day 9).
For `Cn1cc(-c2cn3nccc3c(-c3cnn([C@]4(CC#N)C[C@@H](C#N)C4)c3)n2)cn1`, “amount excreted unchanged in urine” read 2.6 mg (healthy humans; oral, 200 mg twice daily, day 10, dosing interval).
`Oc1ccc([C@@H](O)c2cc(-c3ncnc4cc(N5CCOCC5)ccc34)c(F)cc2Cl)nn1`: “amount excreted in urine” 3.4% (healthy human volunteers; 0-24 h, fasted tablet, geometric mean; reference: dose).
Under “amount excreted in urine (0-48 h)”, `CN[C@@H]1COc2c(S(=O)(=O)NC(=O)Nc3c4c(cc5c3CCC5)CCC4)cnn2C1` is recorded as 247 mg (human; oral, 1800 mg, 0-48 h).
For `CC(=O)N(C)[C@H]1CCN(C(=O)c2cnc3c(c2)C[C@](C)(c2ccc(F)cc2)N3)C1`, “amount excreted in urine” read 42700 nmol (healthy male human; oral, 30 mg once daily, 0-48 h steady state, geometric mean).
Under “amount excreted in urine (0-24 h)”, `CC(C)(Sc1ccncc1-c1ccc(C#N)c2ccccc12)C(=O)O` is recorded as 0.189 mg (human; oral, 10 mg, together with: febuxostat 0 mg).
`CC(C)n1c(C2CCNCC2)nc2c([N+](=O)[O-])c(Br)c(Br)cc21` — result for “amount excreted in urine”: 0.97 mg (human; oral, 50 mg, 0-24 h, median, single dose).
For `C=CC(=O)Nc1cc(Nc2ncc(C(=O)OC(C)C)c(-c3cn(C)c4ccccc34)n2)c(OC)cc1N(C)CCN(C)C`, “amount excreted in urine” read 2.31 mg (healthy human; oral, 160 mg single dose, 0-48 h, arithmetic mean).

A few entries again:
`Oc1ccc([C@@H](O)c2cc(-c3ncnc4cc(N5CCOCC5)ccc34)c(F)cc2Cl)nn1`: “amount excreted in urine” 3.4% (healthy human volunteers; 0-24 h, fasted tablet, geometric mean; reference: dose).
